# Experimental data pooled from the literature.
# Each line is one published result; not all experiments were run side by side.
# KIT: Mast/stem cell growth factor receptor Kit (KIT, Homo sapiens, UniProt P10721)
# UniProt P10721, sequence (whole entry, unmodified, looked up): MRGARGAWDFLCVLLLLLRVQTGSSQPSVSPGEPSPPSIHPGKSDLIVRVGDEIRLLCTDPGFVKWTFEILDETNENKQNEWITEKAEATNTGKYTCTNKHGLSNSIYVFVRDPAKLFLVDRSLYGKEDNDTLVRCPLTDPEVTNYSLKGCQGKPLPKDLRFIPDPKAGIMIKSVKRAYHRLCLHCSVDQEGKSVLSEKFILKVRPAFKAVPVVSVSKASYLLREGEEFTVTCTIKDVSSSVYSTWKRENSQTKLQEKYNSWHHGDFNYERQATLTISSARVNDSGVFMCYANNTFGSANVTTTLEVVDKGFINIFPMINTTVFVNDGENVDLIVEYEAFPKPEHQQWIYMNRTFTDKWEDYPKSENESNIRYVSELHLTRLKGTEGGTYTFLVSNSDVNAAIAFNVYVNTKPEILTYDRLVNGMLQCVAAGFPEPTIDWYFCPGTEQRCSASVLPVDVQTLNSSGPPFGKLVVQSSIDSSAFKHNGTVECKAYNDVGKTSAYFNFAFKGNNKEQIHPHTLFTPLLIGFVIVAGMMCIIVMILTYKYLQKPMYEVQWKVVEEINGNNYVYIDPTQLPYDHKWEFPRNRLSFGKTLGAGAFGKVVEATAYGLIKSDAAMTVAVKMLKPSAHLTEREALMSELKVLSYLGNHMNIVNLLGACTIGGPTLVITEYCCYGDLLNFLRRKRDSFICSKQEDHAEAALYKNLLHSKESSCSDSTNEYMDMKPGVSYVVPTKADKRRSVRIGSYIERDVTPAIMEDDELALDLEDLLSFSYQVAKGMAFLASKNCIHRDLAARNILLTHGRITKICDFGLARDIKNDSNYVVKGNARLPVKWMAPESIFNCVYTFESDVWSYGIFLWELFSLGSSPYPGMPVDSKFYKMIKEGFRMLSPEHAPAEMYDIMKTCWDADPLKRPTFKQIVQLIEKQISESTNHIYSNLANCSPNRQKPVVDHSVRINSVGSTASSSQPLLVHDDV
# KIT L576P: Mast/stem cell growth factor receptor Kit (KIT, Homo sapiens, UniProt P10721, L576P)
# KIT D816V: Mast/stem cell growth factor receptor Kit (KIT, Homo sapiens, UniProt P10721, D816V)
Structure (SMILES),target,test,setting,scale,endpoint,result
COc1cc(F)ccc1-c1ncnc(Nc2cccc(C[S@](C)(=N)=O)c2)n1,KIT,kinase activity,"10 µM, together with: 10 µM ATP",,remaining activity,6%
COc1cc(N2CCN(C)CC2)ccc1Nc1nc(N)n(C(=O)NCc2c(Cl)cccc2Cl)n1,KIT L576P,enzyme activity,10 µM,baseline: control,remaining activity,0.65%
[2H]c1cc(C)c(NC(=O)c2cnc(Nc3cc(N4CCC(O)CC4)nc(C)n3)s2)c(Cl)c1,"KIT (Homo sapiens, UniProt P10721, V560G)",,0.001 µM,,inhibition,< 50%
C#Cc1cc(-c2cc(Nc3nc(N[C@@H](C)c4ccc(F)cn4)ncc3Cl)n[nH]2)ccc1C=O,KIT D816V,"enzyme activity, inhibitor",0.2 µM,,inhibition,9.68%
O=C(NC1CCC1)c1ccc2nc(-c3cccc(NS(=O)(=O)NCCN4CCCCC4)c3)cn2c1,KIT L576P,enzyme activity,10 µM,,remaining activity,100%
[2H]c1cc(C)c(NC(=O)c2cnc(Nc3cc(N4CCCCC4)nc(C)n3)s2)c(Cl)c1,KIT D816V,,0.01 µM,,inhibition,30 to 90%
COc1cc(-c2cncc3c2CN(C)Cc2cc(N4CCNCC4)ccc2-3)cc(OC)c1OC,KIT,kinase activity,"1 µM, human enzyme, together with: ATP 10 µM",baseline: DMSO control,remaining activity,107%
C=CC(=O)N1CCC(COCC(=O)N2CCN(c3nc(-c4cnc(N)nc4C(F)F)nc(N4CCOC[C@@H]4C)n3)CC2)CC1,"KIT (Homo sapiens, UniProt P10721, T670I/V559D)",KINOMEscan,1 µM,,remaining binding,95%

# Excerpt of the above:
Structure (SMILES),target,test,setting,scale,endpoint,result
[2H]c1cc(C)c(NC(=O)c2cnc(Nc3cc(N4CCCCC4)nc(C)n3)s2)c(Cl)c1,KIT D816V,,0.01 µM,,inhibition,30 to 90%
